Published values collected from several papers.
Compare with care: the assays were run in different laboratories. Numbers after ± are the reported error.
CYP3A4: Cytochrome P450 3A4 (CYP3A4, Homo sapiens, UniProt P08684)
UniProt P08684, sequence (whole entry, looked up): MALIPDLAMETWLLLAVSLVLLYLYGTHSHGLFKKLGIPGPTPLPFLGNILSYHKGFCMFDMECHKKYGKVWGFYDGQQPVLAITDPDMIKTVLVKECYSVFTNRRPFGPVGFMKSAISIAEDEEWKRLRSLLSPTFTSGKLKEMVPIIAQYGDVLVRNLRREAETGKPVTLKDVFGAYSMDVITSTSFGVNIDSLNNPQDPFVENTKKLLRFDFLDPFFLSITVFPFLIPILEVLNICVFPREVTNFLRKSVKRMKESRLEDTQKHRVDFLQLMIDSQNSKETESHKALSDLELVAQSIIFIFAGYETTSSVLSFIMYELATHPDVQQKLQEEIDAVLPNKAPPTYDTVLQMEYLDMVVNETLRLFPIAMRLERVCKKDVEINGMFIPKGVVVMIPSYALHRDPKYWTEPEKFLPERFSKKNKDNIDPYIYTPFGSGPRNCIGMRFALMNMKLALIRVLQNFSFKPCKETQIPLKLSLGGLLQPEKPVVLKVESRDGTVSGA
UniProt P21397, sequence (whole entry, looked up): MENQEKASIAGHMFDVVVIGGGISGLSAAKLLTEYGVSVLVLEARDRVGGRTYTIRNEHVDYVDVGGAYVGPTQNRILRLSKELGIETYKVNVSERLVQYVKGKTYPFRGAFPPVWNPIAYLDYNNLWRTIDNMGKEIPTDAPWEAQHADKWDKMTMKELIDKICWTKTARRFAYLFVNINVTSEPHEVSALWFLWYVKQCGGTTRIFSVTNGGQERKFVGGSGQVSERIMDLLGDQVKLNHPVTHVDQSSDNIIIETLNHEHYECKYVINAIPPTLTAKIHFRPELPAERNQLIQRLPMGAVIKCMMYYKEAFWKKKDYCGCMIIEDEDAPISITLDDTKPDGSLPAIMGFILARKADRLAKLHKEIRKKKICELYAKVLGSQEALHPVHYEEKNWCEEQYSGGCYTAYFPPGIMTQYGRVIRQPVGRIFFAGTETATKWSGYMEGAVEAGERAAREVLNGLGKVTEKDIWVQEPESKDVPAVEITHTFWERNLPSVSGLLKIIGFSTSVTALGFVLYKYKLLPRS
UniProt Q12809, sequence (whole entry, looked up): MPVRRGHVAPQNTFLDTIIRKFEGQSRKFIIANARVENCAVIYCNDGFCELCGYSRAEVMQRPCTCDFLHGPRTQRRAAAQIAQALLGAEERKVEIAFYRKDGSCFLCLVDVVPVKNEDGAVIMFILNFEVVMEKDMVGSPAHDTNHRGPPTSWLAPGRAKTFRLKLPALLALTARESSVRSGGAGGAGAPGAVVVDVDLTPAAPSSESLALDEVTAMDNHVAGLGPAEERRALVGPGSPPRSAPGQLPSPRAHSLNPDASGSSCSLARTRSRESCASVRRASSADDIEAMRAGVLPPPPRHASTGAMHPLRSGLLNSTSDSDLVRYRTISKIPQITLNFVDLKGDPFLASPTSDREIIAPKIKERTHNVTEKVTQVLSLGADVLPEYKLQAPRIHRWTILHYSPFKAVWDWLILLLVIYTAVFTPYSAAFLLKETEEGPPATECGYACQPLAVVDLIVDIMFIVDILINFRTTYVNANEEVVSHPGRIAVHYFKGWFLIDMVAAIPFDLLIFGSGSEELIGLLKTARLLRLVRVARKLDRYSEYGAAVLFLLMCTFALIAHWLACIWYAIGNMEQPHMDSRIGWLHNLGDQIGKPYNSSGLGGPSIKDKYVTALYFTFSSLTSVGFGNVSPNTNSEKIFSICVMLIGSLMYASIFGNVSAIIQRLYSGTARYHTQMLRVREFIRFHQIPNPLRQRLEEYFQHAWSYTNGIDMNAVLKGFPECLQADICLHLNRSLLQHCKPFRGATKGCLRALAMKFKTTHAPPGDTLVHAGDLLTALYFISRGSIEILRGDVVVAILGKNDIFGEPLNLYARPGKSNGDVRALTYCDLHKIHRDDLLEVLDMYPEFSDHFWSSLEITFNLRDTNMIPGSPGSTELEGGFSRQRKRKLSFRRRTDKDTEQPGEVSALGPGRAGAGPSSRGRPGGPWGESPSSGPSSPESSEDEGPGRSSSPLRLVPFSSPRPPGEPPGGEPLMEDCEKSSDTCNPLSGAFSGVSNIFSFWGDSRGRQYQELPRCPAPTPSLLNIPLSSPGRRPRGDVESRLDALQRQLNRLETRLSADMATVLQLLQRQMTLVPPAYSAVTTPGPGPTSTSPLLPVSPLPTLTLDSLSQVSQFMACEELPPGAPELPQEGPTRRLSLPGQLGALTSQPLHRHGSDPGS

Structure (SMILES) | target | assay | system | setting | quantity | value
C=CC(=O)N1C[C@H](Nc2ncnc3[nH]ccc23)CC[C@@H]1C | CYP3A | substrate | human, plasma | oral, single dose, added: itraconazole multiple doses | AUC(0-inf) | 308 ng·h/mL
Nc1nnc(-c2cccc(Cl)c2Cl)c(N)n1 | UGT1A, humanized | glucuronidation, Michaelis-Menten kinetics | Tg-UGT1 mice, male, DMSO control group, pooled liver microsomes | 30 min, pH 7.2 | Km | 200 ± 10 µM
NCc1cc2c(cc1F)C(=O)N(C1CCC(=O)NC1=O)C2 (stereo not drawn) | MAOA (Homo sapiens, UniProt P21397) | substrate, LC-MS/MS | recombinant enzyme | 10 µM, 8 h, pH 7.4 | concentration | 7.9 µM
CC(C)=CCc1c(O)cc2c(c1O)C(=O)C[C@@H](c1ccc(O)cc1)O2 | human CYP2E1 |  |  | 1 µM, pH 7.4 | inhibition | < 10%
CC[C@H](C)[C@H](NC(=O)[C@H](Cc1ccc(O)cc1)NC(=O)[C@@H](NC(=O)[C@@H](N)CCCN=C(N)N)C(C)C)C(=O)N[C@@H](Cc1c[nH]cn1)C(=O)N1CCC[C@H]1C(=O)N[C@@H](Cc1ccccc1)C(=O)O | chymotrypsin | LC-MS |  | 20 µM, 60 min, pH 7.4, 25 °C | proteolytic conversion | 83.5 ± 2.4%
CC(C)=CCc1c(O)cc(O)c2c1O[C@H](c1ccc(O)cc1)CC2=O | human CYP2E1 |  |  | 1 µM, pH 7.4 | inhibition | < 10%
Cc1oc2ccccc2c1Cc1cc(I)c(OCC(=O)O)c(I)c1 | KCNH2 (Homo sapiens, UniProt Q12809) | potassium current, whole-cell patch clamp | HEK293 expressing hERG1 | 10 µM, 10 mM K+ | activation slope factor | 9.5 mV
Cc1cc(Nc2ncnc3ccc(NC4=NC(C)(CO)CO4)cc23)ccc1Oc1ccn2ncnc2c1 (stereo not drawn) | CYP3A4 |  | human, plasma | tucatinib, day 6, added: itraconazole | Cmax (arithmetic mean) | 133 ng/mL
CC[C@H]1[C@@H](O)[C@@H]2[C@H](CC[C@]3(C)[C@@H]([C@H](C)CCNC(=O)NS(=O)(=O)c4ccc(C(C)(C)C)cc4)CC[C@@H]23)[C@@]2(C)CC[C@@H](O)C[C@@H]12 | CYP3A4 |  | human, plasma | dose not given, geometric mean, alone | AUC(0-inf) | 408 ng·h/mL

Excerpt of the above:
Structure (SMILES) | target | assay | system | setting | quantity | value
CC(C)=CCc1c(O)cc(O)c2c1O[C@H](c1ccc(O)cc1)CC2=O | human CYP2E1 |  |  | 1 µM, pH 7.4 | inhibition | < 10%
